Published values from different studies.
Lines come from different studies, so protocols differ. ± gives the spread as reported.
Chain of UniProt P80192 (whole entry, looked up): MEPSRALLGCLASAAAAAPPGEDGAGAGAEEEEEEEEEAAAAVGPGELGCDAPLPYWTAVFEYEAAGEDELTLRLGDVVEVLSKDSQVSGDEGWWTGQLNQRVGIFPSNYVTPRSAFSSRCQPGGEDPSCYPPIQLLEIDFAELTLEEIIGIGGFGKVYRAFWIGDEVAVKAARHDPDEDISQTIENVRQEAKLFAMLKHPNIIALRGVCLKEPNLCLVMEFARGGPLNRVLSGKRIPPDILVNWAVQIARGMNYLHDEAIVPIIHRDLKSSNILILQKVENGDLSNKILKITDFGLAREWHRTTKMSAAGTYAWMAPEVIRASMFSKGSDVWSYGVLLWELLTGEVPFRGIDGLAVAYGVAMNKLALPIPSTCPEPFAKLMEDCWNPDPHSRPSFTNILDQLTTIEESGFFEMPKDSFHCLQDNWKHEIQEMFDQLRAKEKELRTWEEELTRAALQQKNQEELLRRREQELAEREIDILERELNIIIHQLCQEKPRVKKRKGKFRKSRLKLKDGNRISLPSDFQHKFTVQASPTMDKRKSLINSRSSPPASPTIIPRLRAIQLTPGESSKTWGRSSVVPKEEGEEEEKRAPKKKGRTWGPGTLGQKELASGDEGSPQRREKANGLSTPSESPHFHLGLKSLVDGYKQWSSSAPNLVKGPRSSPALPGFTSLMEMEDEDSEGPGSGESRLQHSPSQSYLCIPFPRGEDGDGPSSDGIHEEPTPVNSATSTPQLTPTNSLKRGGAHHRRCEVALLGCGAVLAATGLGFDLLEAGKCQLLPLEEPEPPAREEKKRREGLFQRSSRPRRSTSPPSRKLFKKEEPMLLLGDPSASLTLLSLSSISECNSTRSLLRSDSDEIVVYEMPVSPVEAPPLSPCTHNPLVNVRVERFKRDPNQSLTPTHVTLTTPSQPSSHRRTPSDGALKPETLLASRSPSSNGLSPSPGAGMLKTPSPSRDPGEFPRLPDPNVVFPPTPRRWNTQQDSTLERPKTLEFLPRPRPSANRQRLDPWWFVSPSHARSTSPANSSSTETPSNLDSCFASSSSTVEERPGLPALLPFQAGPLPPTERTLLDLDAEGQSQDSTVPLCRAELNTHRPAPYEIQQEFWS
Chain of UniProt P48357 (whole entry, looked up): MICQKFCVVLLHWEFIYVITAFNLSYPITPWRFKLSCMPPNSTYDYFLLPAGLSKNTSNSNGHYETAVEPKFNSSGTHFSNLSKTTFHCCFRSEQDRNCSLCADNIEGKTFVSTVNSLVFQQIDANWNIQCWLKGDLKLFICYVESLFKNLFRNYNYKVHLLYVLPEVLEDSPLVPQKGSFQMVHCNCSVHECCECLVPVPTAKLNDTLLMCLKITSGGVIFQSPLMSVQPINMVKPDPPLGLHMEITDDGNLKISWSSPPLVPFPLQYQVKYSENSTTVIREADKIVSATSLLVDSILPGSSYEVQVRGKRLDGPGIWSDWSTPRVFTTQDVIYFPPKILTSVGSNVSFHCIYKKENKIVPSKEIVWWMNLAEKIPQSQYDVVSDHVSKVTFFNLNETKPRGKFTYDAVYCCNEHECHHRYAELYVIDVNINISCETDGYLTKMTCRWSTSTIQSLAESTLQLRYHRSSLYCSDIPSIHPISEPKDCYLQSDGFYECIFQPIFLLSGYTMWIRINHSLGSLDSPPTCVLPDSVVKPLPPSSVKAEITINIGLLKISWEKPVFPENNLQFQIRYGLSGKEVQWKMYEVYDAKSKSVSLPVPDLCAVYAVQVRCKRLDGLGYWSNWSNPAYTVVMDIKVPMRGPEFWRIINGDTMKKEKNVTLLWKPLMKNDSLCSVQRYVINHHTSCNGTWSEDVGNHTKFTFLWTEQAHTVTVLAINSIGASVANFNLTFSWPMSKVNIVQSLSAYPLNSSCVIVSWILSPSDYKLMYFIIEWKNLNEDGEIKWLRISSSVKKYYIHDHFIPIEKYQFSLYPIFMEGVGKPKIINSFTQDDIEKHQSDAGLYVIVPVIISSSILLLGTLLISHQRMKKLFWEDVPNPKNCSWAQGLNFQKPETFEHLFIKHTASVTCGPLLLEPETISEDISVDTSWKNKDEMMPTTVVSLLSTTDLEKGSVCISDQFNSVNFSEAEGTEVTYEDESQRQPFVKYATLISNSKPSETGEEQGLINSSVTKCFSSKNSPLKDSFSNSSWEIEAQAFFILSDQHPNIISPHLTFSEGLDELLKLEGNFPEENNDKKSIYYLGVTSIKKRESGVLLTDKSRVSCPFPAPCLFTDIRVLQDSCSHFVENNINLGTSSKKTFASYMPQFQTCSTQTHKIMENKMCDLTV
Chain of UniProt Q15046 (whole entry, looked up): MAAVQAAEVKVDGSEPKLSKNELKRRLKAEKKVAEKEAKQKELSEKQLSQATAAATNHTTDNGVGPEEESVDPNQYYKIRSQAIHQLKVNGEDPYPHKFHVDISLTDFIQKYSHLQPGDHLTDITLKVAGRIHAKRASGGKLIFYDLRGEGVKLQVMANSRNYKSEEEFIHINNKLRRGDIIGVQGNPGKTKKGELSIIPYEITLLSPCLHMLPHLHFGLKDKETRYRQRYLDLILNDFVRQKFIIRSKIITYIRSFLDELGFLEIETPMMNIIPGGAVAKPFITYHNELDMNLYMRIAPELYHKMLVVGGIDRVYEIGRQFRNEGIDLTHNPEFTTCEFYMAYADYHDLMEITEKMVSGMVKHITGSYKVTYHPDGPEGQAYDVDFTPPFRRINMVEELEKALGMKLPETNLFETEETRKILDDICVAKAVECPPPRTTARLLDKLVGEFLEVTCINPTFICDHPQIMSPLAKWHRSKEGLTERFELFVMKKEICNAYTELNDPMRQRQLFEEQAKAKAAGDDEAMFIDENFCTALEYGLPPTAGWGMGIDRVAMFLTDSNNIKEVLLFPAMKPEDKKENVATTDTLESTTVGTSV
Chain of UniProt Q99678 (whole entry, looked up): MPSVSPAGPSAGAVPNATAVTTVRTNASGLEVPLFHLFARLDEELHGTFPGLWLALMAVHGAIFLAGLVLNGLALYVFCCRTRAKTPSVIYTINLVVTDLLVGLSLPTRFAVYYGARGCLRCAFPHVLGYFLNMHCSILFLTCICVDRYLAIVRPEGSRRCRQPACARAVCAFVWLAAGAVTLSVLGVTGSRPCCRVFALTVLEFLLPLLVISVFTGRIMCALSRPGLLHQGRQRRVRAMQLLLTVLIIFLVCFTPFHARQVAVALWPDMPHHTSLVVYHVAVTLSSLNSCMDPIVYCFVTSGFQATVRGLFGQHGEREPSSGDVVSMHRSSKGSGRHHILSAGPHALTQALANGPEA

COc1ccc(C[C@@H]2NC(=O)[C@H]([C@@H](C)O)NC(=O)[C@@H]3[C@@H]4CCN3C(=O)[C@@H]3Cc5cn(c6ccc(F)cc56)CCCCCCN(Cc5ccc(cc5)CCNC(=O)[C@]5(C)CCCN5C2=O)C(=O)CCC(=O)N[C@@H](C)C(=O)N[C@H](CNC(=O)CCCCC[N+](C)(C)C)C(=O)N[C@@H](Cc2cccc(c2)CNC(=O)CO4)C(=O)N3)cc1: “participants with adverse event” 16.1% (item: Headache; humans; concentration not given, Study-003).
For CCc1ccc(CC/C=C/c2ccc3c(c2)C(=O)CC3)cc1, the MCH was 19.1 pg (Sprague-Dawley rat, male, blood; oral, 450 mg/kg/day, 14 days).
With O=C(O)[C@H]1O[C@@H](Oc2cc3oc(-c4ccccc4)cc(=O)c3c(O)c2O)[C@H](O)[C@@H](O)[C@@H]1O the Tmax was 5.75 ± 2.25 h (Sprague Dawley rat, plasma; oral, 10 g lyophilized powder/kg, high dose).
O=C(Nc1cnccc1Cl)N1CCN(Cc2ccc3c(c2)OC(F)(F)O3)CC1 has a concentration of 0.0839 ± 0.0014 µM (culture medium without cells; 100 nM, 0 h).
For CC[C@H](C)[C@@H]1NC(=O)[C@@H]2CCCN2C(=O)[C@H](CC(C)C)NC(=O)[C@H](CC(C)C)NC(=O)CNC(=O)[C@@H](NC(=O)[C@@H](NC(=O)[C@H](CC(=O)O)NC(=O)CNC(=O)[C@@H](NC(=O)[C@H](C)NC(=O)CNC(=O)[C@H](CCCCN)NC(=O)[C@H](CC(C)C)NC(=O)[C@H](CC(C)C)NC(=O)[C@H](CCCCN)NC(=O)CNC(=O)[C@@H](NC(=O)[C@@H](N)CC(C)C)C(C)C)C(C)C)C(C)C)CSSC[C@@H](C(=O)O)NC1=O, “log2 fold change” read -1.53 (RNA-seq, item: Gch1; mouse, traumatic brain injury model, frontal cortex and hippocampus; dose not given; relative to: TBI alone).
For Cc1cccc(Cn2nc(C3CC3)c3c(NC(=O)c4cnc5cc(OCCN6CCN(C)CC6)ccn45)cccc32)n1, “adverse events incidence” read 14.3% (item: Lipase increased; human advanced solid tumours; oral, 400 mg, all-causality).
Under “incidence of any TRAE”, CO[C@H]1C[C@@H]2CC[C@@H](C)[C@@](O)(O2)C(=O)C(=O)N2CCCC[C@H]2C(=O)O[C@H]([C@H](C)C[C@@H]2CC[C@@H](OC(=O)NCCOCCOCCOCCOCCOCCOCCOCCOCCC(=O)N3CCc4cc(Cn5nc(-c6ccc7oc(N)nc7c6)c6c(N)ncnc65)ccc4C3)[C@H](OC)C2)C[C@@H](O)[C@H](C)/C=C(\C)[C@@H](O)[C@@H](OC)C(=O)[C@H](C)C[C@H](C)/C=C/C=C/C=C/1C is recorded as 100% (patients with advanced solid tumours; intravenous, 1.6 mg/3 mg weekly, any grade).
For Oc1ccc2c3c1O[C@H]1[C@@H](O)CC[C@@]4(O)[C@@H](C2)N(CC2CCC2)CC[C@]314, “log2 fold change” read 0.108 (G-protein coupled receptor 20 (GPR20, Homo sapiens, UniProt Q99678); β-arrestin recruitment, TANGO luminescence, item: GPR20; concentration not given; relative to: basal luminescence).
CC(C)(C)c1cc(-n2nc3ccccc3n2)c(O)c(C(C)(C)C)c1: “daily dermal exposure dose” 5.85 ng/kg/day (human aged 6-11 years; concentration not given, sunscreen, 95th percentile).
For CC[C@H](C)[C@H](NC(=O)[C@H](Cc1ccccc1)NC(=O)[C@H](CCC(=O)O)NC(=O)[C@H](CCCNC(=N)N)NC(=O)[C@H](C)NC(=O)[C@H](C)NC(=O)[C@H](CCC(N)=O)NC(=O)[C@H](CCC(=O)O)NC(=O)[C@H](CCC(=O)O)NC(=O)[C@H](CC(C)C)NC(=O)[C@H](Cc1ccc(O)cc1)NC(=O)[C@H](CO)NC(=O)[C@H](CO)NC(=O)[C@@H](NC(=O)[C@H](CC(=O)O)NC(=O)[C@H](CO)NC(=O)[C@@H](NC(=O)[C@H](Cc1ccccc1)NC(=O)[C@@H](NC(=O)CNC(=O)[C@H](CCC(=O)O)NC(=O)[C@H](C)NC(=O)CCc1c[nH]cn1)[C@@H](C)O)[C@@H](C)O)C(C)C)C(=O)N[C@@H](C)C(=O)N[C@@H](Cc1c[nH]c2ccccc12)C(=O)N[C@@H](CC(C)C)C(=O)N[C@H](C(=O)N[C@@H](CCCNC(=N)N)C(=O)NCC(=O)N[C@@H](CCCNC(=N)N)C(=O)N[C@@H](CCCCNC(=O)COCCOCCNC(=O)COCCOCCNC(=O)CC[C@H](NC(=O)CCCCCCCCCCCCCCCCC(=O)O)C(=O)O)C(=O)NCC(=O)NCC(=O)N[C@@H](CO)C(=O)N[C@@H](CCCCNc1c(NCCCCCN(O)C(=O)CCC(=O)NCCCCCN(O)C(=O)CCC(=O)NCCCCCN(O)C(C)=O)c(=O)c1=O)C(=O)O)C(C)C [zirconium-89 labelled], the tissue uptake was 0.75 %ID/g (rat, liver; sc, 3 nmol/kg, 24 h, ex vivo).
COc1ccc(-c2c(-c3ccc(C#N)c(F)c3)nc(N3CCC(N)CC3)n(C)c2=O)cc1F: “serious TEAE incidence” 2% (item: small intestinal obstruction; human patients; oral, dose not given, dose escalation).
For CC(=O)OC[C@H]1O[C@@H](Oc2cc(O)cc3cc4oc(C)cc(=O)c4c(O)c23)[C@H](O)[C@@H](O)[C@@H]1O, the cell viability was 96.6 ± 9.43% (HK-2 co-cultured with HepaRG; MTT; 16.67 µM, 48 h; relative to: untreated control).
With CN1CCN(c2cc(-c3ccncc3)c(-c3ccc4ccccc4c3)nn2)CC1 the inhibition was 3.3% (Sphingosine 1-phosphate receptor 1 (S1PR1, Homo sapiens, UniProt P21453); antagonist, FLIPR; 10 µM).
For CN1CC[C@@H](c2c(O)cc(O)c3c(=O)cc(-c4ccc(C(F)(F)F)cc4Cl)oc23)[C@@H]1CO, “patients with adverse event” read 0% (item: urinary incontinence; B-cell malignancies; oral, 200 mg, grade 3 to 4, intermittent dosing).
COc1ncccc1-c1cnn2ccc(N3CCN(C(=O)OC(C)C)CC3)nc12 has a drug concentration of 7 µM (mouse nerve ligation model, brain; oral, 10 mg/kg, 120 min after last dose, repeat dosing day 2).
With CN1CCN(S(=O)(=O)c2cc([N+](=O)[O-])ccc2N(CCOS(C)(=O)=O)CCOS(C)(=O)=O)CC1 the potassium was 8 mmol/L (naive NOD/SCID mice, pooled blood; intraperitoneal, 25 mg/kg, week 1).
Under “serious adverse events”, O=C(c1ccc(F)c(F)c1Nc1ccc(I)cc1F)N1CC(O)([C@@H]2CCCCN2)C1 is recorded as 50% (human patients; oral, 1 mg/kg, dose expansion).
CC(=O)c1c(C)c2cnc(Nc3ccc(C4CCN(CCS(C)(=O)=O)CC4)cn3)nc2n(C2CCCC2)c1=O gave a Tmax of 4.13 h (human, plasma; oral, 150 mg, day 1 single dose).
O[C@H]1CCCN[C@@H]1CCCn1cnc2c(Cl)c(Cl)ccc21 — result for “Cmax,ss geometric LS mean”: 288 ng/mL (healthy volunteers, plasma; oral, 150 mg twice daily, added: pirfenidone 600 mg).
CC(C)=CC1C(C(=O)OC(C#N)c2cccc(Oc3ccccc3)c2)C1(C)C (stereo not shown): “enzyme contribution to clearance” 0.97% (item: CYP2B6; human, age 5 years).
CN(C(=O)n1cnc(-c2ccc[n+]([O-])c2)c1)C1CCCCC1 gave a concentration of 10 ± 1.7 ng/g (Wistar rat, hippocampus; oral, 10 mg/kg/day, 72 h, repeated 5 days).
[Cl][212Pb][Cl] has a tissue uptake of 3.28 ± 0.2 %ID/g (athymic mice, C4-2 xenograft, lungs; intravenous, 2 h, 212Pb-labelled).
With CCN1CCN(Cc2ccc(Nc3ncc(F)c(-c4cc(F)c5nc6n(c5c4)[C@H](C)CCC6)n3)nc2)CC1 the diarrhoea incidence was 16.7% (patients with advanced solid tumours; dose not given, phase Ia monotherapy).
With COc1cc(Nc2ncc(F)c(Nc3ccc4c(n3)NC(=O)C(C)(C)O4)n2)cc(OC)c1OC the IC50 was over 10 µM (Leptin receptor (LEPR, Homo sapiens, UniProt P48357)).
C[C@H]1CN(c2n[nH]c3nc(N[C@H]4CC[C@H](NS(=O)(=O)CCC(F)(F)F)CC4)ncc23)CCO1 gave a remaining binding of 0.95 (Lysine--tRNA ligase (KARS1, Homo sapiens, UniProt Q15046); Kinobeads competition, item: KARS; 0.16 µM, unit not given; relative to: vehicle).
Cc1cc(C)c(CNC(=O)c2cc(Cl)c3c(c2C)O[C@@](C)([C@H]2CC[C@H](N(C)C)CC2)O3)c(=O)[nH]1: “grade 5 acute myeloid leukaemia incidence” 0% (relapsed/refractory NHL patients; dose not given, treatment-related TEAEs, safety set).
Clc1ccc(-c2ccccc2)cc1 gave an alanine aminotransferase of 66 ± 23 U/L (Sprague-Dawley rats, female, serum; inhalation, 23 µg/rat, 4 h after exposure).
CC(C)C1CCC(N2CCC(N3C(=O)C(=O)c4ccccc43)CC2)CC1 (stereo not shown) — result for “onset of sedation”: at most 15 s (conscious Sprague-Dawley rat; intravenous bolus, 100 nmol/kg).
CNC(=O)C(CCN1CCC(O)(c2ccc(Cl)cc2)CC1)(c1ccccc1)c1ccccc1 — result for “unbound fraction in brain”: 0.008 (ultrafiltration; human, brain homogenate; 1 µM, corrected for lysosomal trapping).
NCCCC[C@@H]1NC(=O)[C@@H](Cc2c[nH]c3ccccc23)NC(=O)[C@H](c2ccccc2)NC(=O)[C@@H]2C[C@@H](OC(=O)NCCN)CN2C(=O)[C@H](Cc2ccccc2)NC(=O)[C@H](Cc2ccc(OCc3ccccc3)cc2)NC1=O — result for “subjects with adverse event Nausea”: 89% (healthy human volunteers; 1950 µg twice daily).
The concentration of N#C/N=C1\SCCN1Cc1ccc(Cl)nc1 is reported as 0 mg/kg dry soil (soil; 56 days, nominal 0.12).
For C=CCNc1c(O)cc2c(O)c1C[C@@H](C)C[C@H](OC)[C@H](O)[C@@H](C)/C=C(\C)[C@H](OC(N)=O)[C@@H](OC)/C=C\C=C(/C)C(=O)N2, “patients with sinus bradycardia” read 43% (unresectable or metastatic STS, GIST, other; intravenous, 500 mg/m^2).
C=CC(=O)N1CC[C@H](n2nc(C#Cc3cc(OC)cc(OC)c3)c3c(N)ncnc32)C1 has a serum phosphate of 5.27 mg/dL (human patients, serum; oral, dose not given, QD, before phosphate binder start, added: phosphate binder for ≥2 cycles).
O=C1Nc2cc3[nH]nc(-c4ccncc4)c3cc2CN1Cc1ccccc1 — result for “patients with abdominal pain”: 0% (CTCAE v4.03; advanced solid tumour patients; intravenous, 1.8 mg/kg, schedules 1/2).
O=C(Nc1ccccc1)C1CCN(C(=O)Oc2cccnc2)CC1: “change in Body score” 3.4 (psychotropic effects VAS; healthy women; 60 mg; relative to: pre-dose baseline, direction not given).
Under “red blood cell count”, O.O.O.O.O.O.[Cl-].[Cl-].[Co+2] is recorded as 9.15 ×10E6/µl (Crl:CD(SD) rat female, blood; oral, 7.44 mg Co/kg/day, 90 days).
With COc1ccc2c(c1)CN(C(=O)CCN1CCC(Cc3ccccc3)CC1)CC[S@@+]2[O-] the QTcF prolongation was 13 ms (female beagle dogs, chronic AV block; intravenous, 3 mg/kg, 3 h; relative to: before dosing).
For C[C@]1(O)C[C@@](N)(c2ccc(-c3nc4n(c3-c3ccccc3)COc3ccncc3-4)cc2)C1, “patients with Nausea TEAE” read 33.3% (human, advanced or metastatic solid tumours; 28 mg intermittent, phase I dose escalation).
C[C@]1(CO)Cc2ncn(-c3ccc(C#N)c(Cl)c3)c2C(=O)O1 gave an AUC(0-inf) of 8.65 µM·h (human, plasma; 40 mg, first dose fasted).
COc1cc2c(Oc3ccc4[nH]c(C)cc4c3F)ccnc2cc1OCC1(N)CC1 — result for “bone pain incidence”: 0% (sarcoma, recurrent or refractory, high-risk, paediatric; concentration not given, grade 3, whole group).
The half-life of COc1cc2c(cc1OC)CN(CCc1ccc(NC(=O)c3cccc4c(=O)c5cccc(OC)c5[nH]c34)cc1)CC2 is reported as 10.1 h (CD-1 mouse, male, lung; intraperitoneal, 0.3 mg/kg).
With COc1ccc(N2C(=O)N(c3c(C)cccc3Cl)Cc3cnc(Nc4ccc(C5CCN(C)CC5)cc4OC)nc32)nc1 the inhibition was 27% (Mitogen-activated protein kinase kinase kinase 9 (MAP3K9, Homo sapiens, UniProt P80192); kinase activity, inhibitor; 0.5 µM, MLK1).
CC[C@H](C)[C@@H]1NC(=O)[C@@H]2CSSC[C@H](NC(=O)[C@H](CCCNC(=N)N)NC(=O)[C@@H]3CSSC[C@H](NC1=O)C(=O)N[C@@H]([C@@H](C)O)C(=O)N[C@@H](CCCNC(=N)N)C(=O)NCC(=O)N[C@@H](Cc1ccccc1)C(=O)N3)C(=O)N[C@@H](CC(C)C)C(=O)N[C@H]1CSSC[C@H](NC(=O)[C@H](C(C)C)NC(=O)CNC(=O)[C@H](CCCNC(=N)N)NC(=O)[C@H](CCCNC(=N)N)NC1=O)C(=O)N[C@@H](CCCNC(=N)N)C(=O)N2: “focal thrombosis score” 1 to 2 (Sprague-Dawley rats, female, lung; 5 mg/kg; direction not given).
For CN(N=O)C(N)=O, the water solubility was 1.4 % w/v (room temperature).
For O=S(=O)(Nc1ccccc1)c1ccc(NC(=S)Nc2ccccc2)cc1, “relative organ weight” read 0.36% (female mice, spleen; oral, 5 mg/kg daily 14 days; relative to: body weight).
For CC(C)[C@@H]1NC(=O)CNC(=O)[C@H](CC(N)=O)NC(=O)[C@H](CCCNC(=N)N)NC(=O)[C@H](Cc2ccc(O)cc2)NC(=O)[C@H](C(C)C)NC(=O)[C@@H](NC(=O)[C@@H](NC(=O)[C@H](CC(N)=O)NC(=O)[C@H](Cc2c[nH]c3ccccc23)NC(=O)[C@H](C)NC(=O)[C@H](Cc2ccccc2)NC(=O)CN)C(C)C)CSSC[C@@H](C(=O)N[C@@H](Cc2c[nH]cn2)C(=O)N[C@@H](CCCNC(=N)N)C(=O)N[C@@H](CCCNC(=N)N)C(=O)N[C@@H](C)C(=O)N[C@@H](CC(N)=O)C(N)=O)NC(=O)[C@H](C(C)C)NC(=O)[C@H](CCCNC(=N)N)NC1=O, “secondary structure content” read 5.88% (circular dichroism, item: α-Helix; PBS; 80 µM, pH 7.4, added: LTA 1 µM).
